Measurements pooled from the literature.
Every numbered part comes from another study and shows a few of its results, in no order. Values joined by “and” are separate records of one study, mostly repeats; a detail may differ.

Set 1
Target: Histone acetyltransferase KAT6A, both winged helices, GST fusion (KAT6A, Homo sapiens, UniProt Q92794, residues 1-181)
Technique: protein binding microarray
Molecule type: double-stranded DNA, one strand shown
Sample: in vitro
Tested at: not given
Setting: 8-mer, flanks averaged, mean of 2 arrays, mostly near background
Relative to: not given
Reading: higher = stronger binding
Measurement: E-score
Residues (chain): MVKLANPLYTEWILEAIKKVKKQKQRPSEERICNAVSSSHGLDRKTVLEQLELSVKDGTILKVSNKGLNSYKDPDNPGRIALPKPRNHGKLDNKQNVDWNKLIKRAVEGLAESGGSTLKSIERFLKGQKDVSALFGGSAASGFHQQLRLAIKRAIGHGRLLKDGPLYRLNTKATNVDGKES
ATTCTATC: -0.168
ACGTTAGG: -0.0461
AAAAAAAT: -0.0216
GTTTAGTA: -0.0152

Set 2
Target: Prothrombin, mature alpha-thrombin (F2, Homo sapiens, UniProt P00734)
Technique: aptamer microarray, sandwich
Molecule type: DNA with 2'F-ANA
Sample: in vitro
Tested at: 200 nM
Setting: whole 15-mer aptamer, many near background
Together with: Cy3 exosite-II aptamer, 400 nM
Reading: higher = stronger binding
Measurement: mean fluorescence intensity
Sequence: GGTTGGTGTGGTTGG
2'F-ANA at 2 4 6 8 10 11 12 14: 56.8 a.u.
2'F-ANA at 1 5 9 11 12 14: 44.5 a.u.
2'F-ANA at 1 4 6 7 11 12 13 14 15: 58.2 a.u.
2'F-ANA at 5 6 9 12 14: 48 a.u.
2'F-ANA at 2 5 6 12 14: 45.6 a.u.
2'F-ANA at 1 2 3 5 9 10 11 12: 48.9 a.u.

Set 3
Target: Sal-like protein 4, full length isoform A (SALL4, Homo sapiens, UniProt Q9UJQ4, residues 1-1053)
UniProt Q9UJQ4, sequence (whole entry, looked up): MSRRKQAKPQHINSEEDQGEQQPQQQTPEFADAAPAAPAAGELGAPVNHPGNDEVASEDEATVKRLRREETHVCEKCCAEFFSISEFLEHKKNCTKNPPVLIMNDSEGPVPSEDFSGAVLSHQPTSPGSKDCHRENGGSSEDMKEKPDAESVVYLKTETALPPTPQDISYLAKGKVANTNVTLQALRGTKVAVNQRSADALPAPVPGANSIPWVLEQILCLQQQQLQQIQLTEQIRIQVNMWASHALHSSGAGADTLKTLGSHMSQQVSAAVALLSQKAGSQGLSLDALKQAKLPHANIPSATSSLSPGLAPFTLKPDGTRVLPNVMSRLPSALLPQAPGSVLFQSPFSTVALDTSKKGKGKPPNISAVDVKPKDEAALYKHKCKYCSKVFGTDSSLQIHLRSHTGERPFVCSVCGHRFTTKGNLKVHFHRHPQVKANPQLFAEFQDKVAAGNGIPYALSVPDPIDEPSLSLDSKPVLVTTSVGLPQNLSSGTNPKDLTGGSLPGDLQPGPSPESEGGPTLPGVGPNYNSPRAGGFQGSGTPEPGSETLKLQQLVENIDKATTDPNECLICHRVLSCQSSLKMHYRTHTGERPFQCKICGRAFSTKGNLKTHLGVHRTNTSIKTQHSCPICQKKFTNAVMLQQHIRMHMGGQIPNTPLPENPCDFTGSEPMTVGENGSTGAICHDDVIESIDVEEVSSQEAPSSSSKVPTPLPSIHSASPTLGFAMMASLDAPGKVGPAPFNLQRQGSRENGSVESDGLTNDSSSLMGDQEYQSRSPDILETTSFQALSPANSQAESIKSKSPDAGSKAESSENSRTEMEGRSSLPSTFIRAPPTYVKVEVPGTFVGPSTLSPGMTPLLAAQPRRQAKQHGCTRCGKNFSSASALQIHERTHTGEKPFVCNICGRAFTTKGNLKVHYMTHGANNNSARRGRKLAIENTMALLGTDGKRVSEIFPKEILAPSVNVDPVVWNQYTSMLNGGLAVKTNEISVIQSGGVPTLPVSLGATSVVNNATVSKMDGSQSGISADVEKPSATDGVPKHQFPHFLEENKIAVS
Technique: universal PBM
Molecule type: double-stranded DNA, one strand shown
Sample: in vitro
Tested at: 600 nM
Setting: 8-mer, flanks averaged, mean of replicates
Reading: higher = stronger binding
Measurement: E-score
ATCGTAAG: 0.0879
CATCGAGG: -0.104
ACAGAGCG: -0.0269
ATGCTAAG: 0.147
AGTAAGCC: -0.0949
CCGCCTGC: -0.321

Mixed results
PhoQ, residues 284 288 289 292 302 303 QWQEDG  fold induction (PhoP, residues 12 14 15 18 19 LWHCS (Escherichia coli, UniProt P23836); Sort-seq, refers to: YFP reporter; E. coli; PhoQ-PhoP variant library, together with: 10 µM Mg2+; relative to: high Mg2+ state, higher = stronger signaling): 9.81 and 14.5
